Assay results collected from several papers.
Compare with care: the assays were run in different laboratories. ± marks the error that the study gave.

| SMILES | target | test | test system | conditions | scale | endpoint | result |
| --- | --- | --- | --- | --- | --- | --- | --- |
| COC(=O)c1cc(NC(=O)[C@H](CCCCN)NC(=O)c2cc(NC(=O)[C@H](CCCCN)NC(=O)c3cc(NC(=O)[C@H](CCCCN)NC(=O)c4cc(NC(=O)[C@@H](N)CCCCN)ccc4OC)ccc3OC)ccc2OC)ccc1OC | antithrombin III-factor Xa | fondaparinux reversal, amidolytic | – | pH 8.4, with: fondaparinux 0.02 µg/mL | – | EC50 | 11 µM |
| CCCC[C@H](NC(C)=O)C(=O)N[C@@H](CO)C(=O)N[C@H](C(=O)N1CCC[C@H]1C(=O)N[C@]1(C)CCCCCCC=CCCC[C@@](C)(C(=O)N[C@@H](Cc2ccccc2)C(=O)N[C@@H](CCCCN)C(=O)N[C@@H](CCCNC(=N)N)C(=O)N[C@@H](CC(C)C)C(=O)N[C@@H](CCC(N)=O)C(N)=O)NC(=O)[C@H](CCCNC(=N)N)NC(=O)[C@H](CCCC)NC(=O)[C@H](CC(C)C)NC(=O)[C@H](CCCNC(=N)N)NC(=O)[C@H](CCCNC(=N)N)NC(=O)[C@H](CCCNC(=N)N)NC1=O)[C@@H](C)O | UBE1 | p53 ubiquitination, inhibitor | – | 30 µM, 2 h, 37 °C, with: UBE2A, HDM2, ubiquitin, ATP | – | inhibition | inhibited |
| O=C(/C=C/c1ccccc1)c1ccc(O)cc1 | HDAC class I, II and IV (human) | enzyme activity, inhibitor, fluorometric | K562 cell extract | 1 h, 37 °C | – | IC50 | > 1000 µM |
| CC1=C(/C=C/C(C)=C/C=C/C(C)=C\C=O)C(C)(C)CCC1 | thyroid hormone receptor, rat | reporter gene, agonist, luciferase reporter, qHTS | GH3.TRE-Luc | – | – | EC50 | < 10 µM |
| COc1ccc(NC(=O)[C@H](CCCCN)NC(=O)c2cc(NC(=O)[C@H](CCCCN)NC(=O)c3cc(NC(=O)[C@H](CCCCN)NC(=O)c4cc(NC(C)=O)ccc4OC)ccc3OC)ccc2OC)cc1C(N)=O | antithrombin III-factor Xa | fondaparinux reversal, amidolytic | – | pH 8.4, with: fondaparinux 0.02 µg/mL | – | EC50 | 2.3 µM |
| CC(=O)N[C@@H](CCCCNC(=O)CCCC[C@@H]1SC[C@@H]2NC(=O)N[C@@H]21)C(=O)N[C@@H](CC(=O)O)C(=O)N[C@@H](CC(C)C)C(=O)N[C@@H](Cc1c[nH]c2ccccc12)C(=O)N[C@@H](CCCCN)C(=O)N[C@@H](CC(C)C)C(N)=O | anti-p53 antibody | binding, AFM force spectroscopy | – | biotin-neutravidin immobilization on gold | – | adhesion pull-off force | 1.7e-10 ± 9e-12 N |
| O=C(/C=C/c1ccccc1)c1ccccc1 | HDAC class I, II and IV (human) | enzyme activity, inhibitor, fluorometric | K562 cell extract | 1 h, 37 °C | – | IC50 | > 1000 µM |
| CCCCC/C=C/C(=O)CCc1ccc(O)c(OC)c1 | mouse mAb 1-F12 | antibody binding, indirect competitive ELISA | – | with: coating antigen 6-OVA | – | IC50 | 0.234 µg/mL |
| Clc1ccc(NN=C(c2ccccc2)c2ccccn2)nc1 | histone deacetylase | enzyme activity | cell lysate | concentration not given | – | inhibition | no inhibition |
| CC[C@H](C)[C@@H]1NC(=O)[C@H](Cc2ccc(O)cc2)NC(=O)[C@@H](N)CSSC[C@@H](C(=O)N2CCC[C@H]2C(=O)N2CCC[C@H]2C(=O)NCC(N)=O)NC(=O)[C@H](CC(N)=O)NC(=O)[C@H](CCC(N)=O)NC1=O | vasopressin V1a receptor, Macaca mulatta | calcium mobilization, agonist, FLIPR Fluo-3 | CHO transfected with receptor | – | – | EC50 | 0.0194 µM |
| COc1ccc(NC(=O)[C@@H](CCCCN)NC(=O)c2cc(NC(=O)[C@@H](CCCCN)NC(=O)c3cc(NC(=O)[C@@H](CCCCN)NC(=O)c4cc(NC(=O)[C@H](N)CCCCN)ccc4OC)ccc3OC)ccc2OC)cc1C(N)=O | antithrombin III-factor Xa | fondaparinux reversal, amidolytic | – | pH 8.4, with: fondaparinux 0.02 µg/mL | – | EC50 | 3 µM |
| CC[C@H](C)[C@H](NC(=O)[C@H](CCC(=O)O)NC(=O)[C@H](CO)NC(=O)[C@@H](NC(=O)[C@@H](N)CO)C(C)C)C(=O)N[C@@H](CCC(N)=O)C(=O)N[C@@H](CC(C)C)C(=O)N[C@@H](CCSC)C(=O)N[C@@H](Cc1c[nH]cn1)C(=O)N[C@@H](CC(N)=O)C(=O)N[C@@H](CC(C)C)C(=O)NCC(=O)N[C@@H](CCCCN)C(=O)N[C@@H](Cc1c[nH]cn1)C(=O)N[C@@H](CC(C)C)C(=O)N[C@@H](CC(N)=O)C(=O)N[C@@H](CO)C(=O)N[C@@H](CCSC)C(=O)N[C@@H](CCC(=O)O)C(=O)N[C@@H](CCCNC(=N)N)C(=O)N[C@H](C(=O)N[C@@H](CCC(=O)O)C(=O)N[C@@H](Cc1c[nH]c2ccccc12)C(=O)N[C@@H](CC(C)C)C(=O)N[C@@H](CCCNC(=N)N)C(=O)N[C@@H](CCCCN)C(=O)N[C@@H](CCCCN)C(=O)N[C@@H](CC(C)C)C(=O)N[C@@H](CCC(N)=O)C(=O)N[C@@H](CC(=O)O)C(=O)N[C@H](C(=O)N[C@@H](Cc1c[nH]cn1)C(=O)N[C@@H](CC(N)=O)C(=O)N[C@@H](Cc1ccccc1)C(=O)O)C(C)C)C(C)C | Gαs-GFP | co-localization, confocal microscopy | HEK293 | 30 min, after ligand washout | – | Pearson correlation coefficient | 0.8 ± 0.019 |
| COc1ccc(C(=O)/C=C/c2ccccc2)cc1 | HDAC class I, II and IV (human) | enzyme activity, inhibitor, fluorometric | K562 cell extract | 1 h, 37 °C | – | IC50 | > 1000 µM |
| Cn1ccc2c(N3CCN(CCCCOc4ccc5c(c4)NC(=O)CC5)CC3)cccc21 | 5-HT1A receptor | arrestin over Gi/o signalling, GloSensor and Tango, operational model | cells | – | reference: serotonin | bias factor | 60 |
| Cc1ccc(NS(=O)(=O)c2cccc(C#N)c2)c2[nH]cc(C#N)c12 | human DCAF15-DDB1 | TR-FRET | – | with: RBM39 RRM2 | – | affinity increase by DDA1 | ~3 fold |
| COc1cc(C(=O)c2[nH]c(N)nc2-c2cccs2)cc(OC)c1OC | tubulin goat | taxol-induced tubulin polymerization | – | 90 µM, with: taxol 10 µM | – | inhibition | 55 ± 8% |
| Cc1sc2ncn(CC(=O)N3CCCC3)c(=O)c2c1-c1cccc(Br)c1 | NMDA receptor, mouse | single-channel current, outside-out patch | cortical neurons | concentration not given, holding -80 mV, with: Ca2+ 1.25 mM | – | unitary current amplitude 2 | -2.58 ± 0.22 pA |
| Cn1cc(-c2cnc3ccc(NC(=O)Nc4ccc5sccc5c4)cc3n2)cn1 | IKKβ | NF-κB reporter gene, dual luciferase | – | concentration not given, with: TNF-α | – | inhibition | inactive |
| COc1cc(CCC(C)=O)ccc1O | mAb 5-3H1 | antibody binding, indirect competitive ELISA | – | with: coating antigen 4-OVA | – | IC50 | > 4 µg/mL |
| COc1ccc(/C=C/C(=O)c2ccccc2)cc1 | HDAC class I, II and IV (human) | enzyme activity, inhibitor, fluorometric | K562 cell extract | 1 h, 37 °C | – | IC50 | > 1000 µM |
| O=C([O-])CN1CCN(CC(=O)[O-])CCN(C(CCC(=O)NC(Cc2c[nH]c3ccc(O)cc23)C(=O)NCCc2c[nH]c3ccc(O)cc23)C(=O)O)CCN(CC(=O)[O-])CC1.[Gd+3] (stereo not shown) | myeloperoxidase mouse | MR contrast, MR imaging | wild-type mouse, CFA inflammation | 0.3 mmol/kg, 60 min | reference: first post-contrast scan | activation ratio increase | 4 fold |
| CC(C)N(CCC1CC2CN(Cc3ccc(S(C)(=O)=O)cc3)CC2C1)C[C@H]1O[C@@H](n2cnc3c(N)ncnc32)[C@H](O)[C@@H]1O (stereo partly shown) | human DOT1L R231Q | inhibitor, western blot, item: H3K79me2 over histone H3 | H460 DOT1L R231Q | concentration not given | reference: cpd over SGC0946 | H3K79me2 level ratio | 2.03 |
| CCCCCCCCCCCCCCCC(=O)N[C@@H](CCCCN)C(=O)N[C@@H](CCCCN)C(=O)N[C@@H](CO)C(=O)N[C@@H](CCCNC(=N)N)C(=O)N[C@@H](C)C(=O)N[C@@H](CC(C)C)C(=O)N[C@@H](Cc1ccccc1)C(N)=O | baboon PAR1 | ex vivo platelet aggregation | baboon | intravenous infusion, 1 mg/kg, 1 to 2 h, infusion 30 min, with: SFLLRN 5 µM | – | inhibition | 5 to 10% |
| Cc1ccc2c(c1)nc(/C=C/c1cccc3cccnc13)n2-c1cccc(OCCCN2CCN(C)CC2)c1 | PDE10A Y693A mutant | enzyme activity, inhibitor | – | – | reference: mutant over wild type | potency loss | 13 fold |
| CC(C)C[C@H](NC(=O)[C@H](CCC(N)=O)NC(=O)[C@H](CCCNC(=N)N)NC(=O)[C@H](CCCNC(=N)N)NC(=O)[C@@H](NC(=O)[C@H](CCCNC(=N)N)NC(=O)[C@@H](NC(=O)[C@H](CO)NC(=O)[C@@H](N)CS)[C@@H](C)O)C(C)C)C(N)=O | human Nox1/p47phox/p67phox | inhibitor, cytochrome c reduction | – | 10 µM | – | superoxide production | no inhibition |

Excerpt of the above:
| SMILES | target | test | test system | conditions | scale | endpoint | result |
| --- | --- | --- | --- | --- | --- | --- | --- |
| O=C([O-])CN1CCN(CC(=O)[O-])CCN(C(CCC(=O)NC(Cc2c[nH]c3ccc(O)cc23)C(=O)NCCc2c[nH]c3ccc(O)cc23)C(=O)O)CCN(CC(=O)[O-])CC1.[Gd+3] (stereo not shown) | myeloperoxidase mouse | MR contrast, MR imaging | wild-type mouse, CFA inflammation | 0.3 mmol/kg, 60 min | reference: first post-contrast scan | activation ratio increase | 4 fold |
| CC(C)N(CCC1CC2CN(Cc3ccc(S(C)(=O)=O)cc3)CC2C1)C[C@H]1O[C@@H](n2cnc3c(N)ncnc32)[C@H](O)[C@@H]1O (stereo partly shown) | human DOT1L R231Q | inhibitor, western blot, item: H3K79me2 over histone H3 | H460 DOT1L R231Q | concentration not given | reference: cpd over SGC0946 | H3K79me2 level ratio | 2.03 |
